Experimental data pooled from the literature.
Parts stem from different laboratories: compare values within a part only. Positions count from the first letter of the parent shown.
UniProt P51956, sequence (whole entry, looked up): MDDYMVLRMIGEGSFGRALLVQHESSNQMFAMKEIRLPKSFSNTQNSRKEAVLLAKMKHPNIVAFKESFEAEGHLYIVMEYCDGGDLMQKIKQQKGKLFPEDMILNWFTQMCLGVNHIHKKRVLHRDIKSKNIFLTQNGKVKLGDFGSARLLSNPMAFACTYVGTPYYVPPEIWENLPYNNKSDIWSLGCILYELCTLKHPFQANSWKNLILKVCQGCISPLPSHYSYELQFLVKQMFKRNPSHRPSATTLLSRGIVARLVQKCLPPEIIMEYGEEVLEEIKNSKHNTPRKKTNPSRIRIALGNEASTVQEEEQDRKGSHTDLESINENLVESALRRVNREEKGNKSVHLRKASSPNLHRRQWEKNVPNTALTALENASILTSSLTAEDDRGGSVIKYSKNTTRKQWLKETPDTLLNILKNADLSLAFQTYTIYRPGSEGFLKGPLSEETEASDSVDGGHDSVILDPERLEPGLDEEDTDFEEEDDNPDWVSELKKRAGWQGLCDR
UniProt Q16832, sequence (whole entry, looked up): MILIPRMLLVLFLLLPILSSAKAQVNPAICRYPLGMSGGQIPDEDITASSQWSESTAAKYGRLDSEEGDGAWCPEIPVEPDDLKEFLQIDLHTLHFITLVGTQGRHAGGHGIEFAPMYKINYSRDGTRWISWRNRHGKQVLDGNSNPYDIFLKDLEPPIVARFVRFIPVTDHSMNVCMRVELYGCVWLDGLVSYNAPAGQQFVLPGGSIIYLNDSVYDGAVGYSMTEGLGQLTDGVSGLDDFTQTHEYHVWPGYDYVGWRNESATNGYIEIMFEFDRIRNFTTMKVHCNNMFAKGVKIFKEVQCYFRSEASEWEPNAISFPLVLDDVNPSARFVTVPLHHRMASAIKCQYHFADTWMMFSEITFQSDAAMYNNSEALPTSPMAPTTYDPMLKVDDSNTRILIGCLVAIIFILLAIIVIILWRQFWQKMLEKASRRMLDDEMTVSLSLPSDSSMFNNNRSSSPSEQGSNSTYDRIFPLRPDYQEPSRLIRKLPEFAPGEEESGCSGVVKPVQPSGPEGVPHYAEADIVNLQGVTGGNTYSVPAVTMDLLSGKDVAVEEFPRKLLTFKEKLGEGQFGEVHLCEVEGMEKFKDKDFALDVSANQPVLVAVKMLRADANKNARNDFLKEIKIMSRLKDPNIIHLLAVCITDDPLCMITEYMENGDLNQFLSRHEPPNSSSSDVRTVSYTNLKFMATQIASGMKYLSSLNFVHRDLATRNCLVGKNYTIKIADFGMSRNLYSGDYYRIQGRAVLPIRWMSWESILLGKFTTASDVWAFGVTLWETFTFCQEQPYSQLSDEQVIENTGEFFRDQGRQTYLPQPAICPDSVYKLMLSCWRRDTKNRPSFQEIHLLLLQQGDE
UniProt Q15759, sequence (whole entry, looked up): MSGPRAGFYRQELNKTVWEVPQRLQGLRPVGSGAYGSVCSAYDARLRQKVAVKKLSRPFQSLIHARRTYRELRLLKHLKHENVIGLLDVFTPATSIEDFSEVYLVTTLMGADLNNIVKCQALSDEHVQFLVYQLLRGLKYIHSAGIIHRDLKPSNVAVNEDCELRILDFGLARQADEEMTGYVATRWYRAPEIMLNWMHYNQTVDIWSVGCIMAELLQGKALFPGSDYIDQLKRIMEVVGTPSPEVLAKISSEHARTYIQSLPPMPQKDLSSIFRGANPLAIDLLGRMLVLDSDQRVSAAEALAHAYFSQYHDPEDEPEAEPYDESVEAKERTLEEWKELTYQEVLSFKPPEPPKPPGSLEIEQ

Sample 1
Target: OGT, full length, His-tagged (human)
Technique: phage display, sequencing
Sample: in vitro
Concentration: 1 µg OGT
Setting: single substitutions, 15-mer displayed peptide, unchanged parent 6.14
Relative to: input library
Direction: higher = stronger binding
Starting sequence: peptide; VAYPNSYMPKYQIST
Substitution	fold enrichment [fold]
VAYPNSYMWKYQIST [P9W]	1.49
VAYPNSYMLKYQIST [P9L]	2.69
VAYPNSYMFKYQIST [P9F]	3.59
VAYPNSYMPKMQIST [Y11M]	0.686
VAYPNSYDPKYQIST [M8D]	0.95
VAYPNSYMPKSQIST [Y11S]	0.639
VAMPNSYMPKYQIST [Y3M]	3.46
VAYPNSYMPKYQIHT [S14H]	9.58

Sample 2
Target: CCNE2, cyclin fold, Cln2 fusion (human)
Technique: yeast growth competition, sequencing
Sample: yeast
Setting: strong parent motif
Relative to: not given
Direction: higher = stronger binding
Starting sequence: viral docking peptide; TSVRRALFTGGSD
Substitution	normalised enrichment score
TSVRRALFTGGKD [S12K]	2.84
TSVRRALFTWGSD [G10W]	2.09
TSVRRAGFTGGSD [L7G]	0.13
TSVRRALETGGSD [F8E]	-0.297
TSVRRRLFTGGSD [A6R]	6.94

Sample 3
Target: Centromere-binding protein 1, full length, His-tagged (CBF1, Saccharomyces cerevisiae, UniProt P17106, residues 1-351)
UniProt P17106, sequence (whole entry, looked up): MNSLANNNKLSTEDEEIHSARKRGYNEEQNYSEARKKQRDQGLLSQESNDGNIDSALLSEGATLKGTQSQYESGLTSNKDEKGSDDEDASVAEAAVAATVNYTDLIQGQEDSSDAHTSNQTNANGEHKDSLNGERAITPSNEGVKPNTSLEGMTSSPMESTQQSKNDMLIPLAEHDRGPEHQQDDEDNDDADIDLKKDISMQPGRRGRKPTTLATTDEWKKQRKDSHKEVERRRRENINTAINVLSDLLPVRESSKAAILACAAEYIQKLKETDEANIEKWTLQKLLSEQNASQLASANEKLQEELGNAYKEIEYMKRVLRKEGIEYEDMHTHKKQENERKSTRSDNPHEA
Technique: competition protein-binding microarray
Form: double-stranded DNA, one strand shown
Sample: in vitro
Concentration: 2 µM
Setting: whole 60-bp probe, lowest competitor level
Together with: Pho4 competitor, 0.05 µM
Direction: higher = stronger binding
Constant ends, left off below: … GTCTTGATTCGCTTGACGCTGCTG
Sequence	fluorescence intensity [a.u.]
GTCTTGTCTCATTGCCAAGTGGGTGTCCCCACTTCA	64.3
GTCTTGTCTCATTTTCACGTGGGCTTCCCCACTTCA	671
GGATGCCCGAAATCCAACGTGCAAACTATTCTCGGG	88.7
GCACTTCGCATTAAGCGCGTGAAACTATTGGCTCTC	105
TTTCTAATTGGCCATCACGTTCAATAGTGGCTCTGA	257
AAAGCGGTAATTTGCCGAGTGGGTGCAGATATCTAT	79.3
TGAGAACATCCAACTAGCGTGCCGATGCAATCCCAG	67.3
ACCAGAAAAAAAACACACGTGATGGCCACCAGGAGC	3180

Sample 4
Target: vanadate, free oxyanion
Technique: microfluidic competitive inhibition
Sample: in vitro, cell-free expressed
Concentration: not given
Setting: derived from inhibition constants, unchanged parent 676 nM
Direction: lower = stronger binding
Starting sequence: PafA, mature enzyme, eGFP fusion (Elizabethkingia meningoseptica, UniProt Q9KJX5); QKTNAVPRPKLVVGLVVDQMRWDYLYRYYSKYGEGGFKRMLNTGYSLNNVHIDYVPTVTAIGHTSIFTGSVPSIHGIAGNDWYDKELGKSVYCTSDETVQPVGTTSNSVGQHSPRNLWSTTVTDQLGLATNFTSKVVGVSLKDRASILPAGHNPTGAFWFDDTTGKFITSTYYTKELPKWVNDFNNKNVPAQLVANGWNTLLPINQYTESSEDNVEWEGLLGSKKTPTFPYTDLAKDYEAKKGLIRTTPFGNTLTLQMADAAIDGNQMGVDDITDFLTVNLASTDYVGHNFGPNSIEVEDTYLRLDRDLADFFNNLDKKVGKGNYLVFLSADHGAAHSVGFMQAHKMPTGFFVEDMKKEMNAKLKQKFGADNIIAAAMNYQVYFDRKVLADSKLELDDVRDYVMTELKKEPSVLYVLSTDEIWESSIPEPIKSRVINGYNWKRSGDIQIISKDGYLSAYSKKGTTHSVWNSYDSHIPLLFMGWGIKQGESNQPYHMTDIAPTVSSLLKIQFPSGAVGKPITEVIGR
Substitution	oxyanion analog dissociation constant
I374V	949 nM
L479V	629 nM
G484V	682 nM
K393V	865 nM
A376G	694 nM
G197A	1.66 µM
Y380V	1.07 µM
T301V	614 nM
V215G	538 nM
K319V	778 nM
S146V	567 nM
R144G	> 71.1 µM
P7V	596 nM
N280V	43.8 µM
H289V	37 µM
I499V	695 nM
G445A	417 nM
P154G	787 nM
N437G	985 nM
T502G	2.97 µM
T255V	1.61 µM
L316V	798 nM
T521G	626 nM
A157G	548 nM
K179G	703 nM

Sample 5
Compound: N/C(=N\[N+](=O)[O-])N/N=C\c1ccc(-c2cccc([N+](=O)[O-])c2)o1
Observed: enzyme activity
Action: inhibitor
Concentration: 0.5 µM
Relative to: control
target	remaining activity [%]
Mitogen-activated protein kinase 1 (MAPK1, Homo sapiens, UniProt P28482)	99.7
Mitogen-activated protein kinase 11 (MAPK11, Homo sapiens, UniProt Q15759)	96.6
Serine/threonine-protein kinase Nek3 (NEK3, Homo sapiens, UniProt P51956)	101
Discoidin domain-containing receptor 2 (DDR2, Homo sapiens, UniProt Q16832)	101

Other studies, line by line
Substance	partner	technique	sample	together with	endpoint	value
TMED10 (Homo sapiens, UniProt P49755)	TMED4 (Homo sapiens, UniProt Q7Z7H5)	cross-linking MS	cells	BSPNO	cross-linked residues	K145 to K152

For quick reference, copied from above (sample 1):
Substitution	fold enrichment [fold]
VAYPNSYMLKYQIST [P9L]	2.69
VAYPNSYMPKSQIST [Y11S]	0.639
VAMPNSYMPKYQIST [Y3M]	3.46
VAYPNSYDPKYQIST [M8D]	0.95
